Measured values gathered from unrelated publications.
Parts stem from different laboratories: compare values within a part only.

Sample 1
Target: Prothrombin, mature alpha-thrombin (F2, Homo sapiens, UniProt P00734)
Technique: aptamer microarray, sandwich
Molecule type: DNA with 2'F-ANA
Medium: in vitro
Tested at: 200 nM
Notes: whole 15-mer aptamer, many near background
Together with: Cy3 exosite-II aptamer, 400 nM
Reading: higher = stronger binding
Strand: GGTTGGTGTGGTTGG
For `2'F-ANA at 2 3 4 5 7 8 11`, “mean fluorescence intensity” read 91.2 a.u.
`2'F-ANA at 1 2 4 10 12 13 14`: “mean fluorescence intensity” 45.9 a.u.
`2'F-ANA at 1 2 4 8 10 11 13 14` — result for “mean fluorescence intensity”: 55.1 a.u.
Under “mean fluorescence intensity”, `2'F-ANA at 1 9 12 14` is recorded as 60.7 a.u.
For `2'F-ANA at 1 3 4 7 8 9 10 13`, “mean fluorescence intensity” read 59.5 a.u.
`2'F-ANA at 1 3 4 5 6 12`: “mean fluorescence intensity” 100 a.u.
`2'F-ANA at 3 4 5 6 7 8 10 12 13 15` — result for “mean fluorescence intensity”: 94.4 a.u.
Under “mean fluorescence intensity”, `2'F-ANA at 2 5 7 8 11 13 14` is recorded as 55.2 a.u.

Sample 2
Target: Sal-like protein 4, full length isoform A (SALL4, Homo sapiens, UniProt Q9UJQ4, residues 1-1053)
Sequence of UniProt Q9UJQ4 (whole entry, looked up): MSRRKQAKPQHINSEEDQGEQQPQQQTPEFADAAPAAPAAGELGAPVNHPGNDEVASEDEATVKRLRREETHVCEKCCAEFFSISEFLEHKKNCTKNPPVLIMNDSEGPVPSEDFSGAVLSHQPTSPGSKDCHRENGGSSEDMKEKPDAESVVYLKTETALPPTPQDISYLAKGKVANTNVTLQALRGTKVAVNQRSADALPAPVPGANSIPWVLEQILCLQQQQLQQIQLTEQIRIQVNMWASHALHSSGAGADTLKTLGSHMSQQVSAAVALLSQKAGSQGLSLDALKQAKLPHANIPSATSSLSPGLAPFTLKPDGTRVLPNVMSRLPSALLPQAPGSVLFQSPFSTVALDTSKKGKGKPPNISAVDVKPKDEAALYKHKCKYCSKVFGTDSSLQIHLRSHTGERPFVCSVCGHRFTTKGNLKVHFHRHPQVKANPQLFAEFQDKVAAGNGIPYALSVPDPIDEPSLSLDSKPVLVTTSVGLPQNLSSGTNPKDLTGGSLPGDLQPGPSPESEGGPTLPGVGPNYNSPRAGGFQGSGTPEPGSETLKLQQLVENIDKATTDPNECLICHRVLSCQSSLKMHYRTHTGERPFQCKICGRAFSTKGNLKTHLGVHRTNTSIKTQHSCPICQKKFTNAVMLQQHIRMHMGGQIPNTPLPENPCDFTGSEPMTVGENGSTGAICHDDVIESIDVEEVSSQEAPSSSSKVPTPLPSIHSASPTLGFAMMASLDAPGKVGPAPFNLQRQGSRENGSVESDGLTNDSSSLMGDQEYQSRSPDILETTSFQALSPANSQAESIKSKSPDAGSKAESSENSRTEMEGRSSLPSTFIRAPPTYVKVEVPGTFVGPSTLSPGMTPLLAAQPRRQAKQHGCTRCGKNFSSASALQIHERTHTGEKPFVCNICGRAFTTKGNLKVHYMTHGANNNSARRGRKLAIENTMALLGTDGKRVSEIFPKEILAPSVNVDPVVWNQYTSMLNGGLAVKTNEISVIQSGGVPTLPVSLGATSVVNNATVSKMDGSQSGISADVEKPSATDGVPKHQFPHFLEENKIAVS
Technique: universal PBM
Molecule type: double-stranded DNA, one strand shown
Medium: in vitro
Tested at: 600 nM
Notes: 8-mer, flanks averaged, mean of replicates
Reading: higher = stronger binding
The E-score of `CAGGGCTA` is reported as -0.136.
The E-score of `CCAGGTAG` is reported as -0.156.
For `CCATACCA`, the E-score was -0.0435.
For `ACTGTGTG`, the E-score was -0.125.
`CGTCCATC` gave an E-score of -0.136.
`CCACCGCG` gave an E-score of -0.332.
For `AGTTCGAC`, the E-score was -0.173.

Sample 3
Target: PABPC1L2, full length, GST fusion (mouse, UniProt A0ABA7IW68)
Technique: RNAcompete
Molecule type: RNA
Medium: in vitro
Tested at: 20 nM
Notes: 7-mer, probes averaged, single round
Reference: mean of 7-mers
Reading: higher = stronger binding
Target sequence (chain): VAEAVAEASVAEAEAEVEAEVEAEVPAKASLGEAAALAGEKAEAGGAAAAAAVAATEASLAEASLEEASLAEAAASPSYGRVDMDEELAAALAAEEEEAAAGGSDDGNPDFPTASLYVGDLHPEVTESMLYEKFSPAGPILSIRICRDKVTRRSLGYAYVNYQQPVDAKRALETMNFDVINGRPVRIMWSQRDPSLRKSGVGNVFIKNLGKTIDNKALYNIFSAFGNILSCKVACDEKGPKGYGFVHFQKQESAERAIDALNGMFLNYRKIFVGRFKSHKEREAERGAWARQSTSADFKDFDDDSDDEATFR
The 7-mer Z-score of `GCGUAGU` is reported as -0.175.
With `UACGUAC` the 7-mer Z-score was -0.157.
For `CCGCACU`, the 7-mer Z-score was -0.26.
With `CCCAACC` the 7-mer Z-score was -0.364.
`AGAAAGU` has a 7-mer Z-score of 1.17.
`UUACAAC` has a 7-mer Z-score of -0.101.
`UAGUAUG` has a 7-mer Z-score of -0.211.
The 7-mer Z-score of `CCGGCGG` is reported as -0.204.
`CCACGCU` gave a 7-mer Z-score of -0.237.
For `AAUGGAA`, the 7-mer Z-score was 0.588.
For `UCUGGCG`, the 7-mer Z-score was -0.079.
`AGGACAG` has a 7-mer Z-score of 0.225.
With `CCCACCA` the 7-mer Z-score was -0.295.

Other studies, line by line
With `PhoQ, residues 284 288 289 292 302 303 SSTLLI` the fold induction was 0.971 (PhoP, residues 12 14 15 18 19 HEGLL (Escherichia coli, UniProt P23836); Sort-seq, refers to: YFP reporter; E. coli; PhoQ-PhoP variant library, together with: 10 µM Mg2+; reference: high Mg2+ state, higher = stronger signaling).
